Results gathered from unrelated publications.
Each line is one published result; not all experiments were run side by side. Values joined by “and” are separate records of one study, mostly repeats; a detail may differ. ± marks the error that the study gave.
KDM1A: Lysine-specific histone demethylase 1A (KDM1A, Homo sapiens, UniProt O60341)
IL1RL2: Interleukin-1 receptor-like 2 (IL1RL2, Homo sapiens, UniProt Q9HB29)
Chain of UniProt Q9HB29 (whole entry, looked up): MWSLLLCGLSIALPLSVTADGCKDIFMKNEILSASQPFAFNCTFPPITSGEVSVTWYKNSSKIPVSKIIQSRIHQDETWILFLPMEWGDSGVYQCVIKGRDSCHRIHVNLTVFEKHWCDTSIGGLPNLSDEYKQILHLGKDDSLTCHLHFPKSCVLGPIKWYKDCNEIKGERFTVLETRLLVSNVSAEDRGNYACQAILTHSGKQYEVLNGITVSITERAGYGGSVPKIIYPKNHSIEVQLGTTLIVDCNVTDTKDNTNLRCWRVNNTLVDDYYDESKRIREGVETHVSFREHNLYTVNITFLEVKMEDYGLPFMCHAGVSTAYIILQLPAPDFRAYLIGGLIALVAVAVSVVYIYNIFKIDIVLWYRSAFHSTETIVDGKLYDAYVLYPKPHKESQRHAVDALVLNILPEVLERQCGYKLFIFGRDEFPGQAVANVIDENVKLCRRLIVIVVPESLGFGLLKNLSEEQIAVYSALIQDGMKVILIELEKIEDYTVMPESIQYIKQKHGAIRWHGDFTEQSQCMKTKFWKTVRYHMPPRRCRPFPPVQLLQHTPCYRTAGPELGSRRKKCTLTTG
Chain of UniProt P19447 (whole entry, looked up): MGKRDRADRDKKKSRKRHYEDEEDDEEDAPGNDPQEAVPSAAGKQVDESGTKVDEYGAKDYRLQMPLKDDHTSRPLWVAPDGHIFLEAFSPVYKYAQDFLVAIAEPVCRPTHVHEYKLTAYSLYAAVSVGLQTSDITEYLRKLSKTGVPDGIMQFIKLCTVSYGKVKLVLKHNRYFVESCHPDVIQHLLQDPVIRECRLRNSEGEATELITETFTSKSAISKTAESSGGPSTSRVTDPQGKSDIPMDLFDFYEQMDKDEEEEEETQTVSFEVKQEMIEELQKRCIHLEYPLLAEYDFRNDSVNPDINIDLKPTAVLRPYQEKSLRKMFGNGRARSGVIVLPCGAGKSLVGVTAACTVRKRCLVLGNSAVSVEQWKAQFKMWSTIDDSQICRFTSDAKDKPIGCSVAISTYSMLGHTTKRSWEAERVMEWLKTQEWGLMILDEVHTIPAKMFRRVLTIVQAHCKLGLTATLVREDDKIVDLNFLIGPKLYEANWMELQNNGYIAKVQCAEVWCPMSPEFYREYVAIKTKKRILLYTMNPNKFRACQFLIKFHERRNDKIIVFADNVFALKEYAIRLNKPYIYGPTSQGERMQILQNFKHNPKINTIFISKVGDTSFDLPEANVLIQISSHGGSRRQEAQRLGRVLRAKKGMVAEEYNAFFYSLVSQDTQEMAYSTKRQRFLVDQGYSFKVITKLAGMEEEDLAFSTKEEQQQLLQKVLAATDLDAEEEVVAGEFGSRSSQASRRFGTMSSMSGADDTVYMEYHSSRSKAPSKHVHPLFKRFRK
Chain of UniProt O75417 (whole entry, looked up): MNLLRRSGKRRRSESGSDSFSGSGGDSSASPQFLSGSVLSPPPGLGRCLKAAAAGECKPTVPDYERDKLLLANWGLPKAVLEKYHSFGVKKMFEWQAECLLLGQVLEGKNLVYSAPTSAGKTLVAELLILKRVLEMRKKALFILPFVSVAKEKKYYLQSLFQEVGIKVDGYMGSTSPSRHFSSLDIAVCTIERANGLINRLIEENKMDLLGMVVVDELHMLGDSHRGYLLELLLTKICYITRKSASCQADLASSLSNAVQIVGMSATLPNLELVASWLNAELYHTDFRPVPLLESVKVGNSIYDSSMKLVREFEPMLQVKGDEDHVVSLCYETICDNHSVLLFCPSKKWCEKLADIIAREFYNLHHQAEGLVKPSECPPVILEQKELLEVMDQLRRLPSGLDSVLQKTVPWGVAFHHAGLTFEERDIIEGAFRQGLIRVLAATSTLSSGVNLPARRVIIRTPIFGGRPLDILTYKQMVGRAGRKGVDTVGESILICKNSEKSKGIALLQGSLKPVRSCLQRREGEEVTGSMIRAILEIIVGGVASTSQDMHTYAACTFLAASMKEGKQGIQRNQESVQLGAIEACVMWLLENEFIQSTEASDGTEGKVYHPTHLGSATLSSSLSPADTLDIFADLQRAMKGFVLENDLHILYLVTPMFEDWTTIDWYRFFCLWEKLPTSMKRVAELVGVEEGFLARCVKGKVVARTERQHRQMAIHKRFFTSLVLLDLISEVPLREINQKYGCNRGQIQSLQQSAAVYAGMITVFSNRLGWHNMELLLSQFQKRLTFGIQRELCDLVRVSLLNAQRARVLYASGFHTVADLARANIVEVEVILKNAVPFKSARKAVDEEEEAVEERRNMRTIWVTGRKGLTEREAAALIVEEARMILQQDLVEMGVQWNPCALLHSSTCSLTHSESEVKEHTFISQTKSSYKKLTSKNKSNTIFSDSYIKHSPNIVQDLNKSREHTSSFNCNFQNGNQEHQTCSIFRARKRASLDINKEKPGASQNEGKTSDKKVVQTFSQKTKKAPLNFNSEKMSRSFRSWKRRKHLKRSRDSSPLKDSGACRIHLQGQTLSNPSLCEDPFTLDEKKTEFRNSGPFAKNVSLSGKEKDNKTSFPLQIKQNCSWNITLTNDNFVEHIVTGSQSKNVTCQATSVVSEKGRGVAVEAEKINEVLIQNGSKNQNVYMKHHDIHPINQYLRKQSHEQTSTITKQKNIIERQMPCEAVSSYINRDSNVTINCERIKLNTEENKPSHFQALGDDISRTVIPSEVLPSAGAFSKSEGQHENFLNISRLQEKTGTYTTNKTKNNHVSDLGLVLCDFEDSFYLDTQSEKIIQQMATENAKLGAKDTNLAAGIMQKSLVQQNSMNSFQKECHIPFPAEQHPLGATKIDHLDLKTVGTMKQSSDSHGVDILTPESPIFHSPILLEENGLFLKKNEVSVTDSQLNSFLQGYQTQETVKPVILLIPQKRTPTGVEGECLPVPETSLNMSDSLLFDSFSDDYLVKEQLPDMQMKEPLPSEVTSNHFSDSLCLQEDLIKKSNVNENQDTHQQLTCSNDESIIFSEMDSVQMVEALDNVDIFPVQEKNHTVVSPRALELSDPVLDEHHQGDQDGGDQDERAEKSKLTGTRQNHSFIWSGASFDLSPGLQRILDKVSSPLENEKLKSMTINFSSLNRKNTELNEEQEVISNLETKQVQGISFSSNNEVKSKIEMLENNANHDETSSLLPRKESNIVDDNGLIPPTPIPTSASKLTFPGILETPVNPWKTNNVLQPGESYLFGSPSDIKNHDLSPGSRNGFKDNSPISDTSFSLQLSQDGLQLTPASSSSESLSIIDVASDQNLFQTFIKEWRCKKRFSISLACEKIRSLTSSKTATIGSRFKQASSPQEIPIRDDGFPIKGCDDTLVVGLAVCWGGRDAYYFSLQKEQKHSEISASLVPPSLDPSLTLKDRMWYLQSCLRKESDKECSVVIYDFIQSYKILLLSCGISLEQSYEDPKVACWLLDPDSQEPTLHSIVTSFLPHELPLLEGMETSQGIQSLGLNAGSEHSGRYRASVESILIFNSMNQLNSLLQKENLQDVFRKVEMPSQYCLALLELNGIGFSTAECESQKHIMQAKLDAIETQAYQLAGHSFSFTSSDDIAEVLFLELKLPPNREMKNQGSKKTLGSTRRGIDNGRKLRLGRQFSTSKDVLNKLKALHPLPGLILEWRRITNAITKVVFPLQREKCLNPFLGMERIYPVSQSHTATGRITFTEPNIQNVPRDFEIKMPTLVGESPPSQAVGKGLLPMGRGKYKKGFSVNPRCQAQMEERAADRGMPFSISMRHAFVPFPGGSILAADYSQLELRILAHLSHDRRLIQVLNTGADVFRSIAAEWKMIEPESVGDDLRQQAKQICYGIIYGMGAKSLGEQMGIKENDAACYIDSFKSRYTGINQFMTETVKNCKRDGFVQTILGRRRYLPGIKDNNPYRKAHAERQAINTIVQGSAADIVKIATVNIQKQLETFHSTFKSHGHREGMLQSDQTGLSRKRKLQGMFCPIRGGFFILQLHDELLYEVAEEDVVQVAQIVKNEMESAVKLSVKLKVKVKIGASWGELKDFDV
Chain of UniProt P12295 (whole entry, looked up): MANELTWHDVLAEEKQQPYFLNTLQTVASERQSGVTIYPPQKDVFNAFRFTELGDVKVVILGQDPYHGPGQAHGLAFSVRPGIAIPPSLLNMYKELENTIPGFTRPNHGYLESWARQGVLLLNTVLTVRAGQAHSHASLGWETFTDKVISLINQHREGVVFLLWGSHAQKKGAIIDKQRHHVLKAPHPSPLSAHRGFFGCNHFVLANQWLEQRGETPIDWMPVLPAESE
Chain of UniProt P46116 (whole entry, looked up): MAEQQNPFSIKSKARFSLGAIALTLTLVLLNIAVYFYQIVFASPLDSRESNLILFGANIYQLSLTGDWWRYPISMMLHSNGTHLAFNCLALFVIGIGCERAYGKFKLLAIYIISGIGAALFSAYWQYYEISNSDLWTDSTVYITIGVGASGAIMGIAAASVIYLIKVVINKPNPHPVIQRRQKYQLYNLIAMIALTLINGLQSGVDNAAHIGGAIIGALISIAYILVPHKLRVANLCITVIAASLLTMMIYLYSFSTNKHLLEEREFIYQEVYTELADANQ

The remaining activity of Cn1cc(-c2ccc3ccccc3c2)c2ccc(Cl)nc21 is reported as 44.2% (Gag-Pol polyprotein, integrase (gag-pol, Human immunodeficiency virus type 1 group M subtype B, UniProt P04585); strand transfer; HIV-1; 10 µM).
The remaining activity of CCC1(CO)CCCN(C(=O)c2ccc(CSC)o2)C1 (stereo not shown) is reported as 97.8 ± 3.2% (ung (Escherichia coli, UniProt P12295); enzyme activity, inhibitor; concentration not given, counter-screen).
The remaining activity of CN(C)S(=O)(=O)c1ccc(S(=O)(=O)N2CCC(n3c(=O)[nH]c4ccccc43)CC2)cc1 is reported as 94.5% and 97.1% (General transcription and DNA repair factor IIH helicase/translocase subunit XPB (Homo sapiens, UniProt P19447); ATPase activity, BIOMOL Green; concentration not given).
The remaining activity of O=C(Nc1ccccc1)c1cccc([C@@H]2C[C@H]2NC2CCC2)c1 (racemic) is reported as 96.6% (KDM1A; demethylase activity, inhibitor, Amplex Red; 0.002743 µM, added: H3K4me2 peptide; reference: vehicle).
COC(=O)[C@@]1(C)C=C(C(=O)Nc2cccc(C(=O)Nc3ccc(Nc4nccc(-c5cccnc5)n4)c(C)c3)c2)C(=O)CC1 has a remaining activity of 81% (human CK1; 33PanQinase; 1 µM; reference: control).
CC(C)[C@@H]1NC(=O)[C@H](Cc2ccccc2)NC(=O)CSC[C@@H](C(N)=O)NC(=O)[C@H](CCC(=O)O)NC(=O)[C@H](CO)NC(=O)[C@H](Cc2c[nH]c3cccc(Cl)c23)NC(=O)[C@H](C2CCCCC2)NC(=O)[C@H](C(C)C)NC(=O)[C@H](Cc2ccc(O)cc2)NC(=O)[C@H](CC(=O)O)NC(=O)[C@H](Cc2c[nH]c3ccccc23)NC(=O)[C@H](Cc2ccc(N)nc2)NC(=O)[C@H](Cc2c[nH]c3ccc(Cl)cc23)NC(=O)[C@H](CCC(=O)O)NC1=O has a remaining activity of 97.9% (IL1RL2; reporter gene (SEAP), inhibitor, HEK-Blue IL-36R reporter; HEK-Blue IL-36R cells; 0.14 µM, 6 h, added: IL-36β 10 ng/mL).
For C=CC(=O)N1CCCC(n2c(=O)c3ncccc3n(Cc3ccc(Oc4ccccc4)cc3)c2=O)C1 (stereo not shown), the remaining activity was 87% (ABL1 (Homo sapiens, UniProt P00519, Q252H); kinase activity; 1 µM).
With CN(C)C(=O)c1cccc([C@@H]2C[C@H]2NC2CCC2)c1 the remaining activity was 82% (KDM1A; demethylase activity, inhibitor; 5.556 µM, added: H3K4me2 peptide).
O=C1CC(CCc2ccccc2)N1S(=O)(=O)c1cccc(Cl)c1 (stereo not shown) gave a remaining activity of 43% (Rhomboid protease AarA (Providencia stuartii, UniProt P46116); enzyme activity, inhibitor; 100 µM).
With Cc1cnc(NC(=O)c2cccc([C@@H]3C[C@H]3NC3CCC3)c2)s1 the remaining activity was 83% (KDM1A; demethylase activity, inhibitor, Amplex Red; 0.07407 µM, added: H3K4me2 peptide; reference: vehicle).
For N#Cc1cnc2sc(C(=O)O)cc2c1N1CCc2[nH]nc(C(=O)N[C@@H](CC(=O)NCCOCCN3CCOCC3)c3cccc(Br)c3)c2C1, the remaining activity was 84.8% (IL1RL2; SEAP reporter gene, antagonist; HEK-Blue IL-36R cells; 0.005 µM, 6 h, added: IL-36 0.003 ng/mL; reference: untreated).
CNC(=O)c1cccc([C@@H]2C[C@H]2NC2CCC2)c1 (racemic) has a remaining activity of 87.7% (KDM1A; demethylase activity, inhibitor; 0.6173 µM, added: H3K4me2 peptide).
The remaining activity of COc1ccccc1-c1ccncc1C(=O)Nc1ccc(OCc2ccc(Cl)cc2)nn1 is reported as 102% (DNA polymerase theta, helicase domain (POLQ, Homo sapiens, UniProt O75417); ATPase activity, ADP-Glo; 0.03 µM; reference: 0 µM cpd).
